Measurements gathered from unrelated publications.
Compare with care: the assays were run in different laboratories. “And” joins repeats or separate records; there may be more than shown. Numbers after ± are the reported error.

| SMILES | assay | test system | conditions | how to read | endpoint | result |
| --- | --- | --- | --- | --- | --- | --- |
| O=C1CCc2ccc(OCCCCN3CCN(c4cccc(Cl)c4Cl)CC3)cc2N1 |  | patients CYP2D6 UM | 3 months |  | stopping or switching | 30% |
| O=C(O)c1ccc(-n2cc(CNc3ccc(Cl)c(C(F)(F)F)c3)c(-c3cccc(F)c3)n2)cc1 |  | Caenorhabditis elegans, S. aureus infected | 2 µg/mL, 5 days |  | survival | ~70% |
| CO[C@H]1CC[C@H](N2C(=O)CNc3ncc(-c4ccc(C(C)(C)O)nc4)nc32)CC1 | flow cytometry | stimulated monocytes, human, blood | 45 mg single dose, 1.5 h, mean | relative to: baseline | pAKT change from baseline | -55.2% |
| c1ccc(-c2n[nH]cc2-c2ccnc3ccccc23)nc1 | kinase binding, competitor, MIB/MS competition, refers to: YAK1 | Candida albicans cell lysate | 100 nM | relative to: DMSO | log2 fold change | 1.02 |
| CN(C(=O)n1cnc(-c2ccc[n+]([O-])c2)c1)C1CCCCC1 | refers to: LEA | human, plasma | 20 mg once daily, day 10 |  | AUC(0-tau) | 222 ng·h/mL |
| CN[C@@H]1COc2c(S(=O)(=O)NC(=O)Nc3c4c(cc5c3CCC5)CCC4)cnn2C1 | refers to: IL-1β | human participants, whole blood ex vivo | 900 mg twice daily, multiple doses, 48 h, together with: LPS/ATP | relative to: baseline | inhibition | 99.5% |
| COc1cc(Nc2ncc3c(n2)-c2ccc(Cl)cc2C(c2c(F)cccc2OC)=NC3)ccc1C(=O)O |  | female NOD/scid mice, ALL-19 B-precursor ALL xenograft | 2.6 mg/kg, 5 days weekly, score scale 0 to 10 | direction not given | median response score | 0 |
| C[C@@H](NC(=O)N1C(=O)[C@H](Cc2ccnc(N)c2)[C@H]1C(=O)O)C1CCCCC1 |  | human, plasma | continuous intravenous infusion, 1.5 mg/kg/h, days 1 to 6 of 5-day infusion, median |  | time to maximum prothrombin time | 28 h |
| C[C@@H](O)CCOC(=O)C[C@@H](C)O |  | human | oral drink, dose not given, 60 min post dose, median, all participants |  | plasma NEFA | 0.2 mM |
| N#Cc1ccn2c(-c3ccncc3)c(-c3ccc(F)cc3)nc2c1 | kinase binding, competitor, MIB/MS competition, refers to: MKK2 | Candida albicans cell lysate | 1 µM | relative to: DMSO | log2 fold change | 0.0453 |
| OC(CCN1CCCCC1)(c1ccccc1)C1CC2C=CC1C2 (stereo not shown) | resting-state EEG | healthy elderly humans | oral, 2 mg, eyes open, LS mean |  | EEG Beta1-power Pz-O2 | 3.7 µV² |
| NC(=O)c1cnc2[nH]ccc2c1N[C@@H]1[C@@H]2CC3C[C@H]1C[C@@](O)(C3)C2 | flow cytometry | Japanese healthy men, blood | oral, 100 mg twice daily, 72 h after day 7 dose | relative to: baseline | CD8+ central memory change | -0.33% |
| CC1(C)CCC(CN2CCN(c3ccc(C(=O)NS(=O)(=O)c4ccc(NCC5CCOCC5)c([N+](=O)[O-])c4)c(Oc4cnc5[nH]ccc5c4)c3)CC2)=C(c2ccc(Cl)cc2)C1 | cell kill, PI exclusion flow cytometry | normal CD3+ T lymphocytes, human, peripheral blood | 24 h |  | EC50 | 244 nM |
| COc1ccc(-c2cncc(N[C@@H](C)c3cccc(NC(=O)c4cncc(C)c4)c3)n2)cc1OC | refers to: rno-miR-224-5p | rat SU5416/hypoxia model, lung | dose not given, unit not given | relative to: SU5416/hypoxia vehicle | delta delta Ct | 0.506 |
| CN(C)C(=O)Oc1cccc([N+](C)(C)C)c1 | neuromuscular block reversal | rat | dose not given, 0 (unit not given), together with: cisatracurium | relative to: T1 twitch | train-of-four ratio | 4.34 |
| Cn1nnc2c(C(N)=O)ncn2c1=O |  | mouse subcutaneous GBM PDX sample B | subcutaneous, dose not given |  | T/C ratio | 100% |
| C[C@H](CS)C(=O)N1CCC[C@H]1C(=O)O |  | mouse, unilateral ureteral obstruction, left kidney (obstructed) | dose not given |  | fibrosis area | 7.41% and 13.3% and 5.88% and 7.02% and 5.97% and 6.14% |
| CC(C)NCC(O)c1ccc(O)c(O)c1 (stereo not shown) |  | ventricular cardiomyocytes, C57BL/6 mouse | dose not given, 0.7 s |  | sarcomere length | 1.72 µm |
| CS(=O)(=O)CCNCc1ccc(-c2ccc3ncnc(Nc4ccc(OCc5cccc(F)c5)c(Cl)c4)c3c2)o1 | tumour growth | Calu-3 xenograft, mouse | oral, daily |  | ED50 | 169 mg/kg |
| CSCCNc1nc(SCCC(F)(F)F)nc2c1ncn2[C@@H]1O[C@H](COP(=O)(O)OP(=O)(O)C(Cl)(Cl)P(=O)(O)O)[C@@H](O)[C@H]1O | ADP-induced platelet aggregation, Multiplate aggregometry | human patients, whole blood | dose not given, 30 min |  | platelet aggregation AUC | 27.8 ± 16 U |
| Cc1ccc(C(=O)Nc2ccnc(S(N)(=O)=O)c2)c(N2CCCC(F)(F)CC2)n1 |  | Macaca mulatta, C-nociceptors | intravenous, 0.6 mg/kg bolus then 0.8 mg/kg/h, 90 min |  | conduction velocity | 102 ± 1.48 % baseline |
| CN(C)C(=O)c1cc2cnc(Nc3ccc(N4CCNCC4)cn3)nc2n1C1CCCC1 | RNA-seq GSEA, refers to: HALLMARK_HYPOXIA | MB002 tumour | concentration not given, in vivo | relative to: vehicle, direction not given | GSEA enrichment score | 0.267 |
| CC(C)[C@H](C(=O)Nc1ccc(C(=O)NO)cc1)c1ccccc1 | volumetric MRI | human, left IAC schwannoma | dose not given, day 23 | relative to: baseline | tumour volume change | 3.85% |

| SMILES | assay | test system | conditions | how to read | endpoint | result |
| --- | --- | --- | --- | --- | --- | --- |
| [Cl-].[Cl-].[Pt+2].[Ru+2].c1ccc(-c2nc3cc4ccccc4cc3nc2-c2ccccn2)nc1.c1cnc2c(c1)ccc1cccnc12.c1cnc2c(c1)ccc1cccnc12 | chloride substitution, UV-vis kinetics | aqueous buffer | concentration not given, pH 7.2, second substitution step, together with: thiourea |  | negative activation entropy | 135 ± 7 J/(mol·K) |
| O=C1N(Cc2ccccc2Cl)c2ccccc2C12NN=C(c1ccccc1)S2 (stereo not shown) |  | SK-BR-3 xenograft, mouse | intravenous, 952 mg/kg twice daily, subcutaneous xenograft | relative to: vehicle | T/C | 72% |
| O[C@H]1CCCN[C@@H]1CCCn1cnc2c(Cl)c(Cl)ccc21 | ELISA, refers to: Pro-C6 | healthy human volunteers, serum | intraduodenal, 200 mg twice daily, day 14, multiple ascending dose |  | AUC(0-tau) | 132 ng·h/mL |
| CC(C)C[C@@H](NC(=O)[C@H](C)NC(=O)CNC(=O)[C@@H](NC=O)C(C)C)C(=O)N[C@@H](C)C(=O)N[C@@H](C(=O)N[C@H](C(=O)N[C@@H](C(=O)N[C@@H](Cc1c[nH]c2ccccc12)C(=O)N[C@H](CC(C)C)C(=O)N[C@@H](Cc1c[nH]c2ccccc12)C(=O)N[C@H](CC(C)C)C(=O)N[C@@H](Cc1c[nH]c2ccccc12)C(=O)N[C@@H](C(=O)N[C@@H](Cc1c[nH]c2ccccc12)C(=O)NCCO)C(C)C)[C@H](C)O)C(C)C)C(C)C | H+/Na+ transport, pyranine pH-gradient | EYPC/cholesterol LUVs 2:1 |  |  | EC50 | 202 ± 46.6 nM |
| CCN(Cc1nc2c(N)nc3cc(-c4cc[nH]n4)ccc3c2[nH]1)C(C)=O | Luminex, refers to: IL-1β | cancer patients, serum | 1200 µg monotherapy, first 24 h | relative to: baseline | fold change | 2.9 |
| [Cl-].[Cl-].[Pt+2].[Ru+2].c1ccc(-c2nccnc2-c2ccccn2)nc1.c1cnc2c(c1)ccc1cccnc12.c1cnc2c(c1)ccc1cccnc12 | chloride substitution, UV-vis kinetics | aqueous buffer | concentration not given, pH 7.2, first substitution step, together with: thiourea |  | negative activation entropy | 155 ± 6 J/(mol·K) |
| CC(C)C[C@@H](NC(=O)[C@H](C)NC(=O)CNC(=O)[C@@H](NC=O)C(C)C)C(=O)N[C@@H](C)C(=O)N[C@@H](C(=O)N[C@H](C(=O)N[C@@H](C(=O)N[C@@H](Cc1c[nH]c2ccccc12)C(=O)N[C@H](CC(C)C)C(=O)N[C@@H](Cc1ccc2cc[nH]c2c1)C(=O)N[C@H](CC(C)C)C(=O)N[C@@H](Cc1c[nH]c2ccccc12)C(=O)N[C@H](CC(C)C)C(=O)N[C@@H](Cc1c[nH]c2ccccc12)C(=O)NCCO)C(C)C)C(C)C)C(C)C | H+/Na+ transport, pyranine pH-gradient | EYPC/EYPG LUVs 19:1 |  |  | EC50 | 4.07 ± 0.96 nM |
| NCC(=O)Nc1cncc(-c2nn3c(=O)cc(N4CCNCC4)nc3s2)c1 | ADP-induced platelet aggregation, light transmission aggregometry | human, stable CAD on aspirin, platelets ex vivo | subcutaneous, 0.075 mg/kg, 240 min post-dose, together with: ADP 20 µM |  | inhibition | 8% |
| Cc1n[nH]c2ccc(-c3cc(OC[C@@H](N)Cc4ccccc4)cnc3-c3ccoc3)cc12 | kinase binding, competitor, MIB/MS competition, refers to: SHA3 | Candida albicans cell lysate | 10 µM | relative to: DMSO | log2 fold change | -1.8 |
| Cc1noc(C)c1-c1cc(C(O)(c2ccccn2)c2ccccn2)c2nc(C3CC3)[nH]c2c1 | refers to: CCR2 expression | human, peripheral blood | 6 mg, day 8, 1604 study |  | maximum inhibition | 50% |
| N=C(N)NCCC[C@H](NC(=O)[C@H](CCCNC(=N)N)NC(=O)[C@H](CCCCN)NC(=O)[C@H](CCC(N)=O)NC(=O)[C@H](CCCCN)NC(=O)[C@H](Cc1ccc(O)cc1)NC(=O)[C@@H](N)CCCCN)C(=O)N[C@@H](CO)C(=O)N[C@@H](Cc1ccc(O)cc1)C(=O)N[C@@H](CCCCN)C(=O)O |  | dentin hypersensitivity patients aged ≥sample A years | 5 µg/tooth, day 36, unit not given | relative to: baseline | median VAS change | -11.5 |
| Cn1cc(Nc2nccc(-c3ccc4c(c3)CN(C3COC3)CC[C@H]4NC(=O)c3cn(C(C)(C)C)nn3)n2)cn1 | refers to: Glutathione-mediated Detoxification | splenic B cells, Mus musculus | 30 mg/kg, together with: IgD activation | relative to: vehicle, direction not given | pathway activation z-score | 1.63 |
| FC(F)(F)Oc1cccc(-c2cnc3ccc(-c4ccncc4)nn23)c1 |  | MDA-MB-231 xenograft, NSG mouse | oral, 10 mg/kg daily, day 20 | higher = larger tumour | tumour size | 0.256 a.u. and 0.196 a.u. and 0.211 a.u. and 0.225 a.u. and 0.184 a.u. and 0.325 a.u. |
| Cc1ccc(C(=O)OCc2ccc([C@@H](CN)C(=O)Nc3ccc4cnccc4c3)cc2)c(C)c1 | tonometry | NZW rabbit, magnetic bead-induced ocular hypertension | ocular, 0.02%, 32 h |  | IOP | 34.4 mmHg |
| CCO[C@H]1CCN(Cc2c(OC)cc(C)c3[nH]ccc23)[C@H](c2ccc(C(=O)O)cc2)C1 |  | PNH patients, blood | oral, 50 mg then 200 mg, week 12, mean absolute change | relative to: baseline | C3d-positive type III RBCs | -2% |
| COc1nnc2ccc(N3CCC(c4ccc(OCCN5CCN(C)C(=O)[C@H]5C)cc4)CC3)nn12 |  | patients | 10 mg twice daily, monotherapy and combination cohorts |  | time HEXIM1 above threshold | 9.1 h |
| O=C(O)CNC(=O)Cc1ccccc1 |  | ventricular cardiomyocytes, C57BL/6 mouse | dose not given, 0.716 s |  | sarcomere length | 1.72 µm |
| C[C@H]1C[C@H]2CSC(N)=N[C@@]2(c2nc(NC(=O)c3ccc(OC(F)F)cn3)cs2)CO1 | refers to: total Aβ | healthy adults, plasma | 3 mg single dose, 48 h post-dose | relative to: placebo | percent change from baseline | -19% |
| Cc1c(C)n(Cc2cccc(OC(C)(C)C(=O)O)c2)c2ccc(C(=O)N[C@@H](C)c3ccc(C(C)(C)C)cc3)cc12 |  | C57BL/6 mice, diet-induced obese, proximal tibia | dose not given |  | marrow fat volume/total volume | 0.1 ± 0.06% |
| C[C@H](Oc1ccc(Br)cc1-c1ccon1)C(=O)O | muscle velocity recovery cycles | human, tibialis anterior muscle | 1200 mg single dose, 3.5 h post-dose, frequency ramp, last response at 15 Hz | relative to: placebo | peak amplitude change | 6.98% |
| N#Cc1ccc2c(c1)[C@H]1CCCN(C(=O)c3ccc4[nH]cnc4c3)[C@H]1C2 |  | human, Phase II trial | oral, 20 mg once daily, day 28, adjusted mean, SE |  | body weight change from baseline | 0.6 kg |
| COc1cc2cc(-c3ccc(CC(=O)Nc4cc(C(C)(C)C(F)(F)F)no4)cn3)cnc2cc1OC | RECIST v1.1 | RET-altered advanced solid tumour patients | oral, 75 mg once daily, phase I |  | progressive disease as best response | 23% |
| C=CCn1c(=O)c2cnc(Nc3ccc(N4CCN(C)CC4)cc3)nc2n1-c1ccc2c(n1)[C@@](O)(CC)CC2 |  | NCI-H1944 xenograft, NOD/SCID mice | oral, 80 mg/kg, day 28, once daily days 0-9 and 18-27 |  | tumour volume difference | 711 ± 50.3 mm3 |
